# Published values from different studies.
# Numbered parts are unrelated; each lists some results of a single study. Positions count from the first letter of the parent shown.

# Block 1 — technique: DHFR PCA, deep sequencing; medium: yeast; with: (+)-ABA 0.0091 µM; reference: wild-type fitted maximum; direction: higher = stronger binding
# Target: ABI1, truncated, D143A, DHFR fusion (Arabidopsis thaliana)
# Setting: methotrexate growth selection, single substitutions
# Parent: PYL1, truncated, DHFR fusion (Arabidopsis thaliana); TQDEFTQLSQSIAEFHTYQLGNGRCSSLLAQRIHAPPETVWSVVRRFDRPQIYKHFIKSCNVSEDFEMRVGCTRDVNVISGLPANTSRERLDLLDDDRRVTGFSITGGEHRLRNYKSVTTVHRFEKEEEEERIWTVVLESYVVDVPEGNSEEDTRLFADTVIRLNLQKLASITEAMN
Substitution,relative binding score [%]
S140A,2.9
Y18T,-1.84
L93F,6.08
H122A,2.22
C60K,-8.16
F56R,3.03
T119N,-8.76
T86N,21.1
N85G,22.4
H34A,37.3
E4R,-0.422
R163E,10
T154C,1.12
E127T,42.2
K58Y,1.84
F103E,-2.38
N61K,55.3
L28I,71.1
V142A,22.7
D96Y,-1.38
R99S,-0.749
E151H,19.6
I133A,43.2
R45T,7.02
S104M,-0.511

# Block 2 — target: CCNB1, cyclin fold, Cln2 fusion (human); technique: yeast growth competition, sequencing; medium: yeast; setting: weak parent motif; reference: not given; direction: higher = stronger binding
# Parent: EXO1 docking peptide (human); KPECGRVQRAIFQ
Substitution,normalised enrichment score
KPEAGRVQRAIFQ [C4A],0.133
KPECGRVQAAIFQ [R9A],-0.00896
KPECGAVQRAIFQ [R6A],0.0734
KPECGRVQRAIFA [Q13A],0.133
APECGRVQRAIFQ [K1A],0.128
KAECGRVQRAIFQ [P2A],0.366

# Block 3 — target: FOSL2, bZIP domain (human); technique: DHFR protein complementation; medium: yeast; reference: wild-type JUN-FOS pair; direction: higher = stronger binding
# Setting: single substitutions, most at no-binding floor
# Parent: JUN, bZIP domain (human); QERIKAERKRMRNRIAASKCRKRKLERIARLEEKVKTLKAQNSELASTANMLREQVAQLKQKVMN; partner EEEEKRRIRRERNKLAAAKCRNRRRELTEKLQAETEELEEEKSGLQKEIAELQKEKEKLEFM
Substitution,binding fitness [natural log]
M51H,0.0836
R30C,0.0775
M51E,0.0852
L52I,-0.157
I28N,-0.0762
Q41S,-1.45
L31F,-0.113
E33S,-0.0644
A46F,-0.0553
Q58H,0.0553
E44V,0.0378

# Block 4 — technique: RNA Bind-n-Seq; molecule type: RNA; medium: in vitro; tested at: 365 nM; reference: no-protein control; direction: higher = stronger binding
# Target: RNA binding protein fox-1 homolog 2, RRM domain, GST-SBP tag (RBFOX2, Homo sapiens, UniProt O43251-10, residues 100-194)
# Setting: natural RNA segment, single round, ends assumed
# All sequences stand within: GGGAGUUCUACAGUCCGACGAUC … UGGAAUUCUCGGGUGCCAA
# Construct (chain): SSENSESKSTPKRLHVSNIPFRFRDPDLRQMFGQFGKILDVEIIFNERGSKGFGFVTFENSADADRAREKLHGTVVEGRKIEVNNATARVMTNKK
Strand,RBNS enrichment (R)
AAGGGGGUUUGAAGCCCACCAAGACCGAAACUGGAGAAGGGCUGGACCUGGACCUGGACCUGGACCUACAGCGGGGACUUAAAUGCCUUCUUAUCCAAUAUAUCUUCUCA,0.223
AAAACCGAGAGCUUCACUAAAUGGUAGAUUUUGCUGUCAGAGACCCUACAAUAAGAUUGUUUUAUCUGUACAUUUUUUCAGAUAUUUAACUGUAUAAAAUGUUCAUUUUA,0.4
GUAUCCCUCUGCCACACCCCAGGCCCUGCGAGGGGCUAUCGAGAGGAGCUCACUGUGGGAUGGGGUUGACCUCUGCCGCCUGCCUGGGUAUCUGGGCCUGGCCAUGGCUG,0.306
GCAUUUGUUGCUCUUGGUCCAGUCCGCCUGCCUCCUUAGGAGACCGUUCCAUGACAUGCAAGGGGAAGCUCACAGAAGAAGCCCACUGUAACUCAGUGUGAAGCAAGUGU,0.472
AAAAACAAGCUUUUGAAAGACUGGAAGUUAAGAAAGAAACUUUACUGGCAAUGUUUAAGGACAACAAGUUCAAAUGCCGGAUAUUGAAUGAAAAGGUGAAUACUCCAACU,0.577
AUCCCAUGAUGAUGAAGGAAAAUGGAGAGAUUUUUCUUUUUAACUCUGCUGGUCAGAGAUGAAGCCACGCCUUUCCAUUUUUCAAUGCUGCAUAUUUAAUCUGCAACAAA,0.299
CUUUGCACCAAGAGAAAGCUUUCCAAAAUUAACCUUCACAGCAGCGUUGUAAGUAACUGAGGUCCAUGUGGAAAAGAUGGCUUGUAUUUUUGAAAUGAUCACAACACACU,0.72
UUUCAAAUUUUCAUUAAUGUAUAUAGUGCAAAAUACCAUAUUAAAGAGGGGAAUGUGGAGGACUGAAGCUGACAGUUUGGACUUUUCUUUUUGUACUUAAGUCAUGUCUU,0.632
ACCCCCUGAUGCUUUGAAGGCUAAUUCUCUUCUAAUGGAGUAGCUGUUGCCUAGUAUUCACCUGUGUUACUUUGUAUAUGUCACAGUUCUAUGUUUAAUGCUUUACUAAU,0.672
UCGAACGAAUGAGUAGAGUUCAGAGGUCUUCGUGUUCACAUUUAAAACUAGAUAAAUGACCUCAUUUUCUUGAGCUUGAAUUCAUUUUUAAUUUUAAUUUUAUUUUAUAC,0.894
UCCAAUAACCCAGGGGUUUCCUCAUGUGAUGCAAAUACUACGUGUCCAACCAAUCAGUGCUGUCAACGGGCUGCCAUAGCUCCUUCGAUGGCAAAUAGGAUGUGUGCCCA,0.248
CACCGUAGCAGGUAGACAGAUGGAGGAUGGCUGGGGAAGGGAGUUGUGGGCUGAAGUUUAGGGGACUGCAGACACAUCUGGGCCCAGUCCUCAGCUGUUCCUUGCUGGUA,0.558

# Block 5 — technique: EMSA with sequencing; molecule type: double-stranded DNA, one strand shown; medium: in vitro; tested at: 10 and 20 nM; reference: negative control set to 0; direction: higher = stronger binding
# Target: Hepatocyte nuclear factor 3-alpha (Foxa1, Mus musculus, UniProt P35582, residues 1-468, full length assumed)
# Setting: whole designed probe, mean of two concentrations, ends assumed
# All sequences stand within: GTGAGCGGTGCCCATTGATGGGGAAC … TTTCACTGGGATCGTGGGGAC
# Construct (chain): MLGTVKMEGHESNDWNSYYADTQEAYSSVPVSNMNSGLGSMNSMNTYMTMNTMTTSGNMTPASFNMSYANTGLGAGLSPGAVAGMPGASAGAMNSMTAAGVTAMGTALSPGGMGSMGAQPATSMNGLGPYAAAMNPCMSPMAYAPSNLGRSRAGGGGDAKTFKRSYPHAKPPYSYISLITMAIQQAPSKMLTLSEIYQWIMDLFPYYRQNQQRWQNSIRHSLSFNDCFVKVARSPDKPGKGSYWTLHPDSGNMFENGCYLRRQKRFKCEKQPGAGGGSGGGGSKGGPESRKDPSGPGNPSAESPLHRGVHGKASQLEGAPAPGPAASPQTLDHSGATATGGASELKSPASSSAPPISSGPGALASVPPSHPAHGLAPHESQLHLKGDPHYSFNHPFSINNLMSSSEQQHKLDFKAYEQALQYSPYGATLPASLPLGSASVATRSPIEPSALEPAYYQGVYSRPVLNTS
Strand,normalised bound fraction [ratio]
AAGCCCCACGCACTGTCCGTGGGCGTCTCTGGCCTCCCGGACTTGTATCACAGACCCCAGCCCAAGAGACACAGGCAGAGGAAATGCTCAGTGTAAACATGGGAATGGGAGGGTGGCCCTGCCCTGTGGCCCGGCCTGCCCTGACCTGCAACCATGCACAGTAGCCAGGTGCCACGTAGGGCCCAATGTCTGC,0.292
TTTTTTCTGTACAGGGAAAAATAGTGAATATTTCAAAATTGTGAAACAAAGAGTCTCTGTGGCGTTGCATAACAACTACTCATTAGACAATATGCAAACAAATGAGTGTGTCTGTGTTCCAATAAAACTGTATTTACAAAAGCAGAAGGCCACCCATGTGCCAATGTCCAAAGTTTCTCAACCAACCCCTGGT,0.377
ACTCGTAGCAGTTGGAATCTTGATCTGTATAACATGCACCTTAAAAGGGCATGATCAAAACAGAAACAAATGTTTTTCTGTGTGACCCTCTCTGTTTACTCAGCTCCTAGAAAAAAAGCAGTTAACCTACCATGTCCATGCACTTAGTAGGGACCACCCTGGCATTTCACTCCATATTCCAGCCATTGTAGGG,0.341
AGCAGAACTAATTTATCAATTCCTTAAATACATATTAATGCATACCAAGGGCAGACACTCTGACTTAATAGGAGGATATTGAGAATAAATATAAGTAATCTAGAAATTTTATAATATGTTAGAAGATAGTAAATGCTGTAAAAAATATTTAGAGTGAGGAAAAGGAGTTCAAGACAGCAGAAAAAAAAGTGAA,0.145
ATCTTCCCCCTCTTCCTTGCCCCACCAGCTCACCTACGGGGGTTATTTGCAGATAGGAAAATAAATAAAGCCGGCATTCGTTAACCCTCTTCACGCGCATACTGCTGTTTGCTCTGCATGAATCATGGTCCTTACGCGAGGCGTGGCTCCGGGAGAGCAAAGCACCGTGTCAGGCGCATGATCCGGGCTCGCC,0.351
TTTTGTCCAATTTATTAACTCCTGGAAAACGGCACTCAGTCTATTGCAAGAAAAGCCTTTGCTGATGAGCATGACCAGAATTTGCATACTTTCTTGTTTACATAACACTTATTCTTTACTAGTGGGCATATTTGCTTATAAGCTGTTAAGCAGGGTATTGGAAGGCCTCTATGGAACTTCACTTATCAGTGAT,0.537
AGCATTATCAGCAGGGGCCAGGCTACTTGGCCCACATCTGTTTACCTATGTCCCAGGCCAGCCTGCACTCATTAGATCAGTGCAGCCATAATTTGTTTGCACAGGAGGTGGCAGAGTGTGTACTTGTGTACTTGACCTCAGACATCAAATACTTAAGTTTTGAAAGTACTGAACTGTGATGTCAGCTTGGTTT,0.462
ATTTCCCCCAGCCAGTTTTAAATGTGTTATCTGAGCAAGCAAAACCTAAGAATTTCGGTCTTTAAGGACCAGAAATCTGGGACCCAGGCCAAAGTAATCTTAGTGGCAATGTATTGCTAAACCCAAATGCAACATTGCTAACCAGTTGCTCAGATGTTCTCACAAAGTAATATTTTCTAACAGTTAGTGATTC,-0.0087
